Published values collected from several papers.
Every numbered part comes from another study and shows a few of its results, in no order.

Series 1 — method: RNAcompete; molecule type: RNA; medium: in vitro; tested at: 20 nM; notes: 7-mer, probes averaged, single round; relative to: mean of 7-mers; reading: higher = stronger binding
Target: PABPC1L2, full length, GST fusion (mouse, UniProt A0ABA7IW68)
Construct (chain): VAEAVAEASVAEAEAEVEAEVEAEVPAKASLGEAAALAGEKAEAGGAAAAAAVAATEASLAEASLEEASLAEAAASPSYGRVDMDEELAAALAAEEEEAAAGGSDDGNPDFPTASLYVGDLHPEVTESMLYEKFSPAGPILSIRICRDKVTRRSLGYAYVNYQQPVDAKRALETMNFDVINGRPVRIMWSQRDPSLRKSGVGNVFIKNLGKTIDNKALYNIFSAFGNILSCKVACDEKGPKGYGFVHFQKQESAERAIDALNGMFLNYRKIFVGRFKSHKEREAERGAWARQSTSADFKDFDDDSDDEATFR
Oligonucleotide	7-mer Z-score
GGGGCAU	0.514
GUAGCUC	-0.275
AGAUGUC	-0.306
GUGCUAA	0.137

Series 2 — method: RNA Bind-n-Seq; molecule type: RNA; medium: in vitro; tested at: not given; relative to: input RNA pool; reading: higher = stronger binding
Target: RING finger protein unkempt homolog, zinc fingers 1-6, GST-SBP tag (UNK, Homo sapiens, UniProt Q9C0B0, residues 30-357)
Sequence of UniProt Q9C0B0 (30-357, looked up): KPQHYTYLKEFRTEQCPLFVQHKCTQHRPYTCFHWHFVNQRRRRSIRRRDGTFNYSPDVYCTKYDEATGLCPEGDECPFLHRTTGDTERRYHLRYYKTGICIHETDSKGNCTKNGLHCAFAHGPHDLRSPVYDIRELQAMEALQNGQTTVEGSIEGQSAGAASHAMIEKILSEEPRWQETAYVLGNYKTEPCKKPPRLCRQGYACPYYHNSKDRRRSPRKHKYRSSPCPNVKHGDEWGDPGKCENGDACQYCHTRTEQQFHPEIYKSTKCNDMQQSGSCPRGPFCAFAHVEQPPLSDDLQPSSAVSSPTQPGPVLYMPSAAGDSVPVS
Notes: RNA with constant flanks, human and mouse sites, ends assumed
Oligonucleotide	bound/input enrichment
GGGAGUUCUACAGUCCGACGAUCGAUGUCAUCGAAGACAAAUUGAAGGGAGAGAUGAUGGAUCUCCAACAUGGCAGCCUUUUCCUUAGAACACCAAAGAUUGUCUCUGGCAAAGACUAUAAUGUAACUGCAAACUCCAAGCUGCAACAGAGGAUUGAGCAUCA	0.152 ratio
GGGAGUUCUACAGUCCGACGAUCAAGUUUCUGGACGGCAAUGAGCUCACCCUGGCUGACUGCAACCUGCUGCCAAAGCUUCACAUAGUACAGGUGGUGUGCAAAAAGUACAGAGGCUUCACCAUCCCAGAGGCAUUCCGUGGACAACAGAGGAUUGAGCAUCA	0.147 ratio
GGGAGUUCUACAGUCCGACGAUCGUCAGGACCUGGGUGGGUGGUCCUGAAUGCUUGGCUGGUGGGUUUGGGAGGAUGUGGAGCUAUAGAGGCCUACUCUGCUUCCUAGGUCUCGAAGUCCUCGGAAGCCAAUAGACUCCCUUCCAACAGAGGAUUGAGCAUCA	0.237 ratio
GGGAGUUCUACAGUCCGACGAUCCCGCUCCAUUUCUCCAGUUCGGCUGCCGCCGCCACUGCUGCUCAGCUGGUGUCGGUGCCGCGCGUUUCCCCCACGUCGUCCCCGCAGCCUAUGGCCCAGGCCGCCUUGGGUAUUUCUGCUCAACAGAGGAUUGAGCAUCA	0.166 ratio
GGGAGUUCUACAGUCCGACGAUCGAUUCAAAUGAUGAAUCUGUUGACACCUUAUAACUCCCAUCUCCCUAUCUAUAUUUUUGUCUCUAAGAGAUCAAGUAAGAUACAUGUUGUUCAUAUUCAUAACAACUUAUUAGAGCUAUGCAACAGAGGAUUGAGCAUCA	0.41 ratio

Series 3 — method: protein-binding microarray; molecule type: double-stranded DNA, one strand shown; medium: in vitro; tested at: 2200 nM top; notes: 60-bp whole probe; with: salmon DNA 0.4 mg/ml; relative to: random background probes; reading: higher = stronger binding
Target: Interferon regulatory factor 7, full length, phosphomimetic (IRF7, Homo sapiens, UniProt Q92985, residues 1-503, S471D/S472D/S475D/S476D/S477D/S483D/S484D/S487D)
Target sequence (chain): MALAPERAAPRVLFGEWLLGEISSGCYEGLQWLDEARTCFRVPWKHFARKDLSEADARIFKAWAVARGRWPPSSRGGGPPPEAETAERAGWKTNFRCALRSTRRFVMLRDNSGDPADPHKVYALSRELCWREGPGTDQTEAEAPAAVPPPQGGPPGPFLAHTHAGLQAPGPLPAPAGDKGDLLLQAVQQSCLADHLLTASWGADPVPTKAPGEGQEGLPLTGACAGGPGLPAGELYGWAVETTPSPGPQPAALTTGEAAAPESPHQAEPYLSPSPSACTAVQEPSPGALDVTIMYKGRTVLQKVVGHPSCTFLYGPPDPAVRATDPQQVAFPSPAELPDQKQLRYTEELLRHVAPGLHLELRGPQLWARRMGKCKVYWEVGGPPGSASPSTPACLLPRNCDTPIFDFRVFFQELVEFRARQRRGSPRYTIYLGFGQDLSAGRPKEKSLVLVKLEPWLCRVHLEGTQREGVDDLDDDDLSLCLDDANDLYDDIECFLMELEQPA
Oligonucleotide	fitted relative affinity [z-score]
GCCTAGCACGACGGTATCGCGACTGGGGACGTGCTAGTCTTGATTCGCTTGACGCTGCTG	-0.225
GCCTAGCACACAAGTTTCTCCTTTCGGAAGTGCTAGGTCTTGATTCGCTTGACGCTGCTG	3.85
GCCTAGCACGACCATATCAGTCTCGAGACGTGCTAGGTCTTGATTCGCTTGACGCTGCTG	0.73

Further values, each from its own experiment
Molecule	target	test	system	setting	how to read	quantity	value
PhoQ, residues 284 288 289 292 302 303 GNNTDL	PhoP, residues 12 14 15 18 19 TTLRV (Escherichia coli, UniProt P23836)	Sort-seq, item: YFP reporter	E. coli	PhoQ-PhoP variant library, with: 10 µM Mg2+	relative to: high Mg2+ state, higher = stronger signaling	fold induction	3.15

For quick reference, copied from above (series 1):
Oligonucleotide	7-mer Z-score
GGGGCAU	0.514
GUAGCUC	-0.275
